Published values gathered from unrelated publications.
Protocols differ between the studies behind these lines. Values joined by “and” are separate records of one study, mostly repeats; a detail may differ.
Target: Homeodomain-interacting protein kinase 1 (HIPK1, Homo sapiens, UniProt Q86Z02)

NC(=O)C[C@H]1CCc2sc3ncnc(O[C@H]4CC[C@H](N5CCOCC5)CC4)c3c21  inhibition (enzyme activity, inhibitor; 10 µM): 3%
COc1cc(-n2cc3cc(F)cc(C(N)=O)c3n2)cc(Cl)c1C1CC(O)(CCO)Cc2ccccc21 (stereo not drawn)  inhibition (enzyme activity, inhibitor; 10 µM): 0.46%
C=CC(=O)N1CCc2ccc(-n3c(=O)ccc4cnc5ccc(-c6cnn(C)c6)cc5c43)cc21  remaining binding (KINOMEscan; 1 µM; reference: DMSO control): 89%
CC(C)=CC1OC(C)(C)C2C=C3C(=O)C(Cl)=CC(O)C3C3C(O)C4OC4C(=O)C132 (stereo not drawn)  remaining binding (cell-free assay, competition with immobilised ligand; 10 µM): 65%
CCN1CCN(Cc2ccc(C(=O)Nc3ccc(C)c(NCc4cnc5[nH]ccc5c4OC)c3)cc2C(F)(F)F)CC1  remaining binding (binding, competition with immobilised ligand; 1 µM): 62%
Cc1cnc2nc1Nc1cccc(c1)COC/C=C/COCc1cc(ccc1OCCN1CCOCC1)N2  remaining binding (binding; 0.1 µM): 85%
Cc1cccc(O[C@H]2CCC[C@@H](C(C)CNCc3ccncc3)C2)c1 (relative stereo)  inhibition (enzyme activity, inhibitor; 10 µM): -6%
CCn1cc(C(=O)O)c(=O)c2c(N)c(F)c(NC3CCCCC3)cc21  inhibition (kinase activity; 0.1 µM, with: ATP at Km): 18.3%
Nc1ncc2c(n1)-c1c([nH]c3ccc(C4=CCOCC4)cc13)CCC2  remaining binding (binding, competition with immobilised ligand; 1 µM): 41%
CNC1C[S+]2CC[S+]3CC[S+](C1)[Ru-4]321([N]=C=S)[n]2c3ccc(OC)cc3c3c4c(c5cc(F)c[n+]1c5c32)C(=O)NC4=O (stereo not drawn)  remaining binding (KinomeScan; 0.1 µM; reference: untreated): 89%
C=CC(=O)N1CCCC(n2c(=O)c3ncccc3n(Cc3ccc(Oc4ccccc4)cc3)c2=O)C1 (stereo not drawn)  remaining binding (cell-free assay, competition with immobilised ligand; 1 µM): 88%
C=CC(=O)N1Cc2nc(-c3cc(-c4cc(Cl)cnc4Cl)c(F)cc3F)n(-c3ccncn3)c2C1  inhibition (cell-free assay, inhibitor; 1 µM): 2.9%
CN1CC[C@@H](COc2cnc(C#N)cc2-c2ccn3nc(NC(=O)C4CC4)cc3c2)C1  inhibition (enzyme activity, inhibitor; 1 µM): 4%
Cc1ccc(-c2c(/C=C(\C#N)C(=O)NC(C)C)n(CCCO)c3ncnc(N)c23)cc1  remaining binding (cell-free assay, competition with immobilised ligand; 1 µM): 100%
C=CC(=O)Nc1cccc(-c2cnc3[nH]cc(C(=O)NC(C)(C)C)c3n2)c1  inhibition (kinase activity; 0.1 µM): 44% and 47%
